Measurements collected from several papers.
Numbered parts are unrelated; each lists some results of a single study. Positions count from the first letter of the parent shown.

Series 1
Target: Sal-like protein 4, full length isoform A (SALL4, Homo sapiens, UniProt Q9UJQ4, residues 1-1053)
Chain of UniProt Q9UJQ4 (whole entry, looked up): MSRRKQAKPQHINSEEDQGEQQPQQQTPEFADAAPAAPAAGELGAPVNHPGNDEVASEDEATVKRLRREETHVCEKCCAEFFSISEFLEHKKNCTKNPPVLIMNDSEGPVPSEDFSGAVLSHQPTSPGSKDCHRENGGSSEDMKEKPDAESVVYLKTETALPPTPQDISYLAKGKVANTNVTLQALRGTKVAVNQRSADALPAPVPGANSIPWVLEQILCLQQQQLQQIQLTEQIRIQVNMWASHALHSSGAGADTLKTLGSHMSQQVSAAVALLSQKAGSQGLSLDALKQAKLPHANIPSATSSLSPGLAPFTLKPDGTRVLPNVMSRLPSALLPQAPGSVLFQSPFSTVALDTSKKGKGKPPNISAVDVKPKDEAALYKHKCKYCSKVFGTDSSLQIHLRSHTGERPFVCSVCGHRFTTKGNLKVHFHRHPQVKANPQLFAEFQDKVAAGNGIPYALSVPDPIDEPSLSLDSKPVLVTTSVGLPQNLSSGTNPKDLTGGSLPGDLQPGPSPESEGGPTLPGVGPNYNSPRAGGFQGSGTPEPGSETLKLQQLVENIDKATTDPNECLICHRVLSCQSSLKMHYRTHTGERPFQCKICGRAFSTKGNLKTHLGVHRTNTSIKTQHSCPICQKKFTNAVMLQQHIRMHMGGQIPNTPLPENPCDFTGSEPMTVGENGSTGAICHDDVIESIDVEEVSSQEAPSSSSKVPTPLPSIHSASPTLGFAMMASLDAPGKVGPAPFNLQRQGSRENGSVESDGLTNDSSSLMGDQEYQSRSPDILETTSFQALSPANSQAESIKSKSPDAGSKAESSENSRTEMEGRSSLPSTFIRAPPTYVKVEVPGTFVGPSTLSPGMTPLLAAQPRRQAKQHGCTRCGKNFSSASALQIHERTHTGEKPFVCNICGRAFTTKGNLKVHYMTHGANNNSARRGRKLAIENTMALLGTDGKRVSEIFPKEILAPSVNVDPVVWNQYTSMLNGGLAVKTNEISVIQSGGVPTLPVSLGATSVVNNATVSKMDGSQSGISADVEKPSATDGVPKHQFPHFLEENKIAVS
Method: universal PBM
Form: double-stranded DNA, one strand shown
Matrix: in vitro
Concentration: 600 nM
Notes: 8-mer, flanks averaged, mean of replicates
Direction: higher = stronger binding
| Oligonucleotide | E-score |
| --- | --- |
| ATACCACG | 0.0954 |
| CAGAATAG | 0.0944 |
| CCACCAGA | -0.222 |
| CCATCAGG | -0.31 |
| AAGTAAAA | 0.254 |
| CGGTAAAA | 0.116 |
| AGATTATC | 0.229 |
| GTTCTCTA | 0.0478 |
| CAGATGTA | 0.109 |
| TATTACAA | 0.402 |
| AGGTCGCG | -0.305 |
| GAGGAAGC | -0.221 |
| ACTTAGGG | -0.078 |
| GCATACAA | 0.171 |
| CCTGCAGG | -0.339 |
| CCGTTGTA | 0.0866 |
| AGCGCTAC | -0.0344 |
| GAAGTAGC | -0.0822 |
| CGCATCAC | 0.0339 |
| GGAGACCC | -0.32 |
| CCAGCAAA | 0.00671 |
| CCGAGCGG | -0.358 |
| AGACACAG | -0.142 |
| CGTCCAAA | 0.0802 |
| GTATACAC | 0.0746 |

Series 2
Target: CCND1, cyclin fold, Cln2 fusion (human)
Method: yeast growth competition, sequencing
Matrix: yeast
Notes: weak parent motif
Relative to: not given
Direction: higher = stronger binding
Parent: PKMYT1 docking peptide (human); SFEPRNLLSLFED
| Substitution | normalised enrichment score |
| --- | --- |
| P4L | 1.39 |
| N6G | 1.58 |
| F2P | 0.345 |
| E12F | 0.886 |
| L7I | 1.07 |
| N6M | 0.414 |
| F2D | 0.884 |
| S1G | 0.387 |
| S9E | 1.21 |
| D13M | 1.57 |
| F11I | 1.14 |
| E12Q | 0.721 |
| F2N | 0.0385 |
| L7E | 0.336 |
| P4M | 1.64 |
| L10W | 2.19 |
| E12S | 0.617 |
| N6A | 1.18 |
| N6D | 0.399 |
| S1T | 0.695 |
| L8T | 1.4 |
| D13G | 1.24 |
| R5I | 1.88 |
| F11H | 1.69 |

Series 3
Target: RNA binding protein fox-1 homolog 2, RRM domain, GST-SBP tag (RBFOX2, Homo sapiens, UniProt O43251-10, residues 100-194)
Method: RNA Bind-n-Seq
Form: RNA
Matrix: in vitro
Concentration: 365 nM
Notes: natural RNA segment, single round, ends assumed
Relative to: no-protein control
Direction: higher = stronger binding
All sequences stand within: GGGAGUUCUACAGUCCGACGAUC … UGGAAUUCUCGGGUGCCAA
Residues (chain): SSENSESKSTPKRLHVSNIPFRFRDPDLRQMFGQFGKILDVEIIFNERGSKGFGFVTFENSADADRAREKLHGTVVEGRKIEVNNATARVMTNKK
| Oligonucleotide | RBNS enrichment (R) |
| --- | --- |
| AAGACAGCACUCACUGGGAUGAAGCAGGGAGCAGGGCUGCCGCCACCCACAUUCCACUCUAGUUGGGGCUUGUGACUUAGCCCUGGACUCUGUUUCUGCAGGCAAGGGAC | 0.553 |
| GUCUGCAGUAUUCAUUUUAAAAAUAUUGACAUGCUUUUCCCCUCCCCUCCAUGAAGUCAGUGCCAGAGUGAGCCAGAUUGGGAGGUUGGGGUUUUGUUUGGUUGGCUUGG | 1.42 |
| CCCACAGGGCCUUAGAGUCAGAGGUAAGGUAGCAACAGAGCUAGAAUGGGGCAAUGCACUCUUACCCUCCUUCUCAACUUUUAUUUAAGCUGUGCUAAAUGUUUUCUUCA | 1.15 |
| CUUGUUUCAGAUCAUAUUGAUCUCUUUCCUUUUGUCUCUCACCGUAUGGUAUGACUUGAAUCAGUUUUGAUUCUAUGUGUAAGUUCUCAUCGUUUGGAACCUGGUAUUUC | 0.422 |
| UGGGCAGGGACUGCCUCCUCCCGGAAUUCCUAAGAUCCGCCCAGCUGCCACCAUUUUCAUUGCUUUCCCCAGCAGCAUGAUGGGAACCCAAGCUGAGGGAUACAGGUCCU | 2.68 |
| GAAAGCCUAAGUGUAAAUAUAUAUCUCUUUAUAUUUGUCUAGUCUGGUAAAAGGGAAUUCAGAAGAUUGCCUUAGAGUCUAAUUCCCCCAUGAAAGAUUAUUAAUUACAU | 1.49 |
| UCUUUCUUGGUUUCCAGAGGAACUGAGCCUGAGUGGGCUCUGCCAGUGCCUAGUGGAACUGUCCACCCAGCCAGCCACUGUGUGUUAUGGUUCUGCAACCACCAGGGAGG | 0.25 |
| CACCUGUAGCUCUUGUUGACCUGCCUGUUCACCUCAUGAGUGAAGCGUCUGCCUGGCAGUGGGCCAUGAACUGAGGGGUCUCUGUGUAGAGUAGAAGCUUCCUGUGCCUC | 1.38 |
| CUACUUCUAGCUGAUCAUUCUUUUCCCAACAUAUAUUUACAAAUUUACCAAAUUUUACCUAGAAUUUUAGGACCAAAUGGUUCUCACUCUUUAUGCUGCAAAGACCUGGA | 0.588 |
| UUUUUAAACUUGGUAGAAAUGUCGGCAGCUGCUCUACACACAACUUCACUCAAGGCUUUGUUUCCAGAGGCCAGCUAGGCUGUCACAGGCAGGAAUCCCUUCCCAUCUGC | 0.605 |
| UGUUCAGGGGCAGUGGGGGGCUCCAGGCACGGUCAAUGAAGGAAACAGUGCCUGUCCACCCACCCUGCGUGUCACUGUGGCGGCCUGGCUGUCGCUGCUUUUUGUCCUCU | 0.391 |
| GUUGCUGCGGCCCUGGGGUUUAACCUCUUCCUGCCAGGAGCGGGACUAAUGCGCCGGGAAGGCUGGGUGCGUACAAGCAAAGGGCUCCCCAUCAGUCCCGUCCGUCUGUC | 0.37 |

Series 4
Target: Centromere-binding protein 1, full length, N-terminal tag (CBF1, Saccharomyces cerevisiae, UniProt P17106, residues 1-351)
Chain of UniProt P17106 (whole entry, looked up): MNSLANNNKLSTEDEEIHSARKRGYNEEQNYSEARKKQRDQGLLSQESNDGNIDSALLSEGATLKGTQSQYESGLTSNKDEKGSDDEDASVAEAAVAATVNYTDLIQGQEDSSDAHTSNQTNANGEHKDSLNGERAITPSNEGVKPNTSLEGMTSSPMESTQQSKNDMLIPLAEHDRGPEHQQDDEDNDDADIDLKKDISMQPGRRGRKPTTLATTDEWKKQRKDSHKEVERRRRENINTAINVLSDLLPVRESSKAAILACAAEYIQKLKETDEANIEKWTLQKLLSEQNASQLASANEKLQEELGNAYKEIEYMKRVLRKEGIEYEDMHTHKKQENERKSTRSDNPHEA
Method: protein-binding microarray
Form: double-stranded DNA, one strand shown
Matrix: in vitro
Concentration: 0.8 µM
Notes: whole 60-bp probe, no competitor
Direction: higher = stronger binding
All sequences stand within: … GTCTTGATTCGCTTGACGCTGCTG
| Oligonucleotide | fluorescence intensity |
| --- | --- |
| CTATAGCGAGGCCGTGTCACGTTCCCTTTTTTGTTC | 3020 a.u. |
| CTAATGTAGTATGCGCACCTGATGCGCATAATATTC | 1250 a.u. |
| CTATACAATTTATAAACCACCACCTTGGCCTCGTTC | 504 a.u. |
| CCTAACTACTATATTCTCGTGTGATAGCTTCGTACA | 533 a.u. |
| GAAACAAGTAGTGTCTTCATGACGGATTCATAGTAG | 511 a.u. |
| CTAGACATGGTTTTTGCCGTGACCGTGGATCTCTTC | 611 a.u. |
| CTACAGAAGACGTGCCGCGTGATTCCAAAGGTGTTC | 1040 a.u. |
| TGTACGAAGCTATGTGACTTCTGTATAGTAGTTAGG | 560 a.u. |
| GAACAAGCAGGCATTCACATGCATCAGTTGAAATAG | 607 a.u. |
| CCTAACTACTATACAATGGTGACATAGCTTCGTACA | 493 a.u. |
| GAAGAAGAAAAAATGAAGGTGACGCAAAAAAGGTAG | 580 a.u. |
| GAATGATCTCATAATCACGTCCCATTCCCGGCTTAG | 557 a.u. |
| CTACCACCAAATGCTTAGGTGACTCCATTGTAATTC | 564 a.u. |
| CTACATCATCAGAGCCACGCAACACGGTAATCATTC | 534 a.u. |
| CTACGGAAAAACCTCCACGTGTTAGGTTATTCCTTC | 6950 a.u. |
| GAAAGAAACATATACCTCGTGCTAAAGAAAATATAG | 1110 a.u. |
| CTATCTTTGAAAAATCACGAGATGGTGCATATTTTC | 1340 a.u. |
| GAATTTTTTAATGGTCATCACAGCCCCTGCTGATAG | 516 a.u. |
| GAATGCTCTCTTCGTGTCATTCCTTATAGCATATAG | 540 a.u. |
| CCTAACTACTATAAGTGCGTGCGATAGCTTCGTACA | 516 a.u. |
| CTATCCTATTCTTATCACGTTATTGTTTACTTATTC | 2190 a.u. |
| GAAAAGCATCTACATCACGAATATACGGGATATTAG | 544 a.u. |
| CTATGCACTTGAAACAACGTGTAGACCATCACGTTC | 620 a.u. |
| CTAACTATATAAAGTCACGTTAGAATGCAATTTTTC | 1380 a.u. |
| CTAAAGAATATAGTAAACGTGTAGCAGAGTCATTTC | 614 a.u. |

Series 5
Target: Histone acetyltransferase KAT6A, winged helix 1, GST fusion (KAT6A, Homo sapiens, UniProt Q92794, residues 1-85)
Method: protein binding microarray
Form: double-stranded DNA, one strand shown
Matrix: in vitro
Concentration: not given
Notes: 8-mer, flanks averaged, mean of 2 arrays, mostly near background
Relative to: not given
Direction: higher = stronger binding
Residues (chain): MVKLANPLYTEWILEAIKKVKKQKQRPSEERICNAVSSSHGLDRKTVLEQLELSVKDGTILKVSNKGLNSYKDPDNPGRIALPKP
| Oligonucleotide | E-score |
| --- | --- |
| CCCCACAA | -0.159 |
| AGATGCGC | 0.299 |
| GGCAGCGA | 0.25 |
| TAGGTTGA | -0.165 |
| GGCGTTTA | 0.187 |
| GGGCTAAC | 0.00218 |
| GACTAGGC | -0.00463 |
| GACAGTAC | -0.135 |
| AACGCGGT | 0.332 |
| AGGCTCAA | -0.2 |
| GATTGGCA | -0.211 |
| ACTGGTAC | -0.0595 |
| CAATTCAC | -0.0281 |
| GCGGTGGA | 0.0859 |
| GATACAAA | -0.0427 |
| ATCAGGCA | -0.262 |
| AAGCAGAC | -0.192 |
| ATGCCGCA | 0.297 |
| ACCAGCTG | -0.139 |
| CCTCCTCC | -0.245 |
| GGCTGGCA | 0.0846 |
| ATATGACG | 0.023 |
| GCTCAAGA | -0.0721 |
| ACTAATCG | 0.0754 |
| AGTGGCAG | -0.124 |
